Assay results gathered from unrelated publications.
Compare with care: the assays were run in different laboratories. “And” joins repeats or separate records; there may be more than shown. Numbers after ± are the reported error. In brackets after ≈: the same amount, converted by molar mass.

For Cc1ccc(N(c2ccc(NC(=O)CN(C)c3ccccc3N3CCCC3=O)cc2)C(C)C)cc1, the lag phase was 24 h (Plasmodium falciparum; 3D7 asexual blood stage; 10 x EC50).
The CFU reduction of CCCCCCc1ccc(Oc2ccccc2Cl)c(O)c1 is reported as 1.47 log10 CFU (Mycobacterium tuberculosis; mouse, rapid infection model, spleen; oral, 200 mg/kg once daily, co-solvent formulation).
O=C(Cc1cc(C(F)(F)F)cc(C(F)(F)F)c1)N1CCN(c2ccc3nncn3n2)CC1: “potency fold increase” 3 fold (Cryptosporidium parvum; parasite growth, high-content microscopy; HCT-8; baseline: 3,5-dichloro analogue over compound EC50).
Cc1cc(C)c2cc(C(=O)NC3CCCCCCC3)[nH]c2c1 gave a selectivity index of greater than 764 (Mycobacterium tuberculosis; THP-1; baseline: THP-1 IC50 over MIC).
With CC(=O)N1CCC(C(=O)N2CCN3C(=O)c4cc(-c5ccccc5)ccc4NC(=O)C3C2)CC1 (stereo not shown) the median lifespan was 17 days (Caenorhabditis elegans; N2; 6.25 µM).
Under “bacterial load reduction”, CO[C@H]1/C=C/O[C@@]2(C)Oc3c(C)c(O)c4c(O)c(c(/C=N/N5CCN(C)CC5)c(O)c4c3C2=O)NC(=O)/C(C)=C\C=C\[C@H](C)[C@H](O)[C@@H](C)[C@@H](O)[C@@H](C)[C@H](OC(C)=O)[C@@H]1C is recorded as roughly 0.5 log10 CFU (Mycobacterium tuberculosis; Mus musculus, lung; 10 mg/kg, suspended in PBS, monotherapy).
C=CC(=O)N1CC/C(=C\c2ccc(F)c([N+](=O)[O-])c2)C(=O)/C(=C/c2ccc(F)c([N+](=O)[O-])c2)C1 gave an IC50 of 3050 nM (human alphaherpesvirus 1; live-cell GFP imaging; primary human fibroblasts, K26 GFP).
O=C(Nc1ccc([N+](=O)[O-])cc1Cl)c1cc(Cl)ccc1O — result for “viral progeny production”: “no effect” (human adenovirus C5 reporter virus; A549; concentration not given, 72 h post-infection).
Nc1ccn([C@@H]2O[C@H](CO)[C@@H](O)C2(F)F)c(=O)n1 gave an IC50 of 130 nM (human alphaherpesvirus 1; live-cell GFP imaging; primary human keratinocytes, K26 GFP).
For CN[C@H](CC(C)C)C(=O)N[C@H]1C(=O)N[C@@H](CC(N)=O)C(=O)N[C@H]2C(=O)N[C@H]3C(=O)N[C@H](C(=O)N[C@H](C(=O)O)c4cc(O)cc(O)c4-c4cc3ccc4O)[C@H](O)c3ccc(c(Cl)c3)Oc3cc2cc(c3O[C@@H]2O[C@H](CO)[C@@H](O)[C@H](O)[C@H]2O[C@H]2C[C@](C)(N)[C@H](O)[C@H](C)O2)Oc2ccc(cc2Cl)[C@H]1O, the MIC50 was 2 µg/mL (≈ 1.38 µM) (Staphylococcus aureus; MRSA, 10 isolates; pH 8.5).
Under “relative parasite number”, CCC(=O)O is recorded as 1.07 ± 0.158 (Cryptosporidium parvum; image-based; HCT-8; 1 mM, 24 h post-infection; baseline: PBS).
The selectivity index of Cc1nc(N(C)C(=O)Cc2ccc(-c3ccccn3)cc2)sc1S(N)(=O)=O is reported as greater than 66.7 (human alphaherpesvirus 1; primary human fibroblasts, K26 GFP; CC50 capped at 10.00 µM; baseline: CC50 over IC50).
The inhibition of CCCc1nn(C)c2c(=O)[nH]c(-c3cc(S(=O)(=O)N4CCN(C)CC4)ccc3OCC)nc12 is reported as -6.04% and -2.9% (Cryptosporidium parvum; parasite growth, immunofluorescence imaging; HCT-8, Iowa; 6 µM).
N[C@@H](CCO)C(=O)O — result for “relative parasite number”: 1.02 ± 0.084 (Cryptosporidium parvum; image-based; HCT-8; 1 mM, 24 h post-infection; baseline: PBS).
CNC(C)C1CCC(N)C(OC2C(N)CC(N)C(OC3OCC(C)(O)C(NC)C3O)C2O)O1 (stereo not shown) gave an MIC of 4 µg/mL (≈ 8.38 µM) (Pseudomonas aeruginosa; clinical isolate RKI-No_598/16).
The clinical score of Nc1nc(-c2ccccc2)nc2[nH]nc(Nc3ccc(C(F)(F)F)cc3)c12 is reported as 1.3 (coxsackievirus B3; 31-1-93, NMRI mice, CVB3 chronic myocarditis; oral, 100 mg/kg twice daily, day 9, dosed days 3 to 10, score scale 0 to 7; direction not given).
N=C(N)c1ccc(OCc2cc(Br)cc(COc3ccc(C(=N)N)cc3)c2)cc1: “MIC in combination” 6.25 µg/mL (Escherichia coli; ATCC 25922; concentration not given, added: rifampicin).
With CC1(C)CC(=O)c2c(C(F)(F)F)nn(-c3ccc(C(N)=O)c(N[C@H]4CC[C@H](O)CC4)c3)c2C1 the IC50 was 80 nM (human alphaherpesvirus 1; live-cell GFP imaging; primary human keratinocytes, K26 GFP).
Cc1cc(Nc2ccc(S(F)(F)(F)(F)F)cc2)n2nc(C(C)(F)F)nc2n1: “lag phase (Tlag)” 8.78 h (Plasmodium falciparum; microscopy; human malaria patients; 400 mg, mean).
For CCCN(C)c1ccc(CN2CCC(COc3cccc(Oc4ccccc4)c3)CC2)cc1, “minimum bactericidal concentration” read 50 µM (≈ 22.2 µg/mL) (Mycobacterium tuberculosis; ATCC 25618; compound alone).
For N=C(N)c1ccc(OCCCCCOc2ccc(C(=N)N)cc2)cc1, “MIC in combination” read 50 µg/mL (Escherichia coli; BW25113; concentration not given, lowest-FICI combination, added: erythromycin).
O=C(/C=C\n1cnc(-c2cc(C(F)(F)F)cc(C(F)(F)F)c2)n1)NNc1ccccn1 gave an IC50 of 150 nM (human alphaherpesvirus 1; viral replication, GFP signal; K26 GFP, 3D skin equivalent, air-liquid; 48 h).
The EC50 of COc1ccnc(C(N)=O)c1O is reported as greater than 10 µg/mL (Daphnia magna; immobilisation, semi-static water exposure; 48 h).
With CC(C)n1ncc2c(C(=O)NCC3(C)CNC3)cc(C3CC3)nc21 the plaque reduction was 7.43% and 0% (Enterovirus D68; viral replication; RD, US/MO/14-18947; 100 nM).
Under “relative parasite number”, NC(N)=O is recorded as 0.998 ± 0.072 (Cryptosporidium parvum; image-based; HCT-8; 1 mM, 24 h post-infection; baseline: PBS).
The growth of COC(=O)[C@@H](CCSC)NCc1cc2ccccc2nc1SC is reported as 97.8% (Pseudomonas aeruginosa; 16 µg/mL, added: pentamidine 100 µM; baseline: control).
CCn1c(=O)c(-c2cc[nH]n2)cc2c(C)nc(N)nc21: “viral RNA level” “decreased” (Coxsackievirus B4; viral replication, RT-qPCR; HeLa, CVB4-7; concentration not given, 20 h).
The selectivity index of COc1ccc(-c2nc(N3CCOCC3)c3sc(CN(C)c4ncc(C(=O)NO)cn4)cc3n2)cn1 is reported as greater than 6.9 (human alphaherpesvirus 1; K26 GFP, 3D skin equivalent, submerged; baseline: CC50 over IC50).
CN[C@H](CC(C)C)C(=O)N[C@H]1C(=O)N[C@@H](CC(N)=O)C(=O)N[C@H]2C(=O)N[C@H]3C(=O)N[C@H](C(=O)N[C@H](C(=O)O)c4cc(O)cc(O)c4-c4cc3ccc4O)[C@H](O)c3ccc(c(Cl)c3)Oc3cc2cc(c3O[C@@H]2O[C@H](CO)[C@@H](O)[C@H](O)[C@H]2O[C@H]2C[C@](C)(N)[C@H](O)[C@H](C)O2)Oc2ccc(cc2Cl)[C@H]1O has an isolates inhibited of 1.5% (coagulase-negative staphylococci; concentration not given, MIC ≤4 µg/mL).
Cc1ccc(NC(=O)N2Cc3[nH]cnc3C[C@H]2c2nc(-c3ccc4c(c3)OCO4)no2)cc1 gave a median lifespan of 17 days (Caenorhabditis elegans; N2; 100 µM).
With COC(=O)[C@H](Cc1c[nH]c2ccccc12)NCc1cc2ccccc2nc1OC the growth was 95.6% (Pseudomonas aeruginosa; 2 µg/mL, without pentamidine; baseline: control).
With N=C(N)c1ccc(OCc2ccc(Br)cc2COc2ccc(C(=N)N)cc2)cc1 the FICI was no more than 0.039 (Escherichia coli; checkerboard; BW25113; synergy at FICI ≤0.5, unit not given, added: novobiocin; lower = stronger synergy).
With CC(=O)NC[C@H]1CN(c2ccc(N3CCOCC3)c(F)c2)C(=O)O1 the MIC50 was 1 µg/mL (≈ 2.96 µM) (Staphylococcus aureus; MRSA, 10 isolates; pH 5.5).
Cc1cc(OC(C)C)ccc1C(=O)C(C)(C)NC(=O)c1sccc1C has an inhibition of 100% (Botrytis cinerea; appressorium formation; B05.10; 10 µg/mL).
For O=C(Nc1ccc([N+](=O)[O-])cc1Cl)c1cc(Cl)ccc1O, the IC50 was 9900 nM (human alphaherpesvirus 1; live-cell GFP imaging; primary human keratinocytes, K26 GFP).
COC(=O)[C@H](Cc1c[nH]c2ccccc12)NCc1cc2ccccc2nc1SC gave a growth of 99.3% (Pseudomonas aeruginosa; 8 µg/mL, without pentamidine; baseline: control).
CC1=C[C@H](O/C=C2/C(=O)O[C@@H]3c4ccccc4C[C@H]23)OC1=O (racemic) gave a germination rate of 54.2% and 82.6% and 69.2% and 87.5% and 40% and 75% and 75.9% (Striga hermonthica; stimulant; seeds; 10 nM).
